# Assay results gathered from unrelated publications.
# Numbers after ± are the reported error.
# BCHE: Cholinesterase (BCHE, Equus caballus, UniProt P81908)
# Sequence of UniProt P81908 (whole entry, looked up): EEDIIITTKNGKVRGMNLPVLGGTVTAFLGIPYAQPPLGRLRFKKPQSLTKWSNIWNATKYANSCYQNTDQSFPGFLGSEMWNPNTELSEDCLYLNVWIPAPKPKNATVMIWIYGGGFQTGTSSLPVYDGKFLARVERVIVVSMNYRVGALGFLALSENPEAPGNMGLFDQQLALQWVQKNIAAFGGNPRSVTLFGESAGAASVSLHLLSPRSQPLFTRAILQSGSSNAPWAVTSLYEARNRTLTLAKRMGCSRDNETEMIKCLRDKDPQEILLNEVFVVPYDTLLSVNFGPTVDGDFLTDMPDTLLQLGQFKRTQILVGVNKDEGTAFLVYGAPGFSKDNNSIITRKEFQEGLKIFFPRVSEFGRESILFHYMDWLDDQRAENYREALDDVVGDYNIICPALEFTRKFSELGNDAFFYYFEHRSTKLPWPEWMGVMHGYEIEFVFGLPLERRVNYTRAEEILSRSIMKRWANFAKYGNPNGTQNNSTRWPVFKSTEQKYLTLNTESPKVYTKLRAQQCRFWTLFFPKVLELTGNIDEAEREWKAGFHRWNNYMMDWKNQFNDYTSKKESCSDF
# Sequence of UniProt P25021 (whole entry, looked up): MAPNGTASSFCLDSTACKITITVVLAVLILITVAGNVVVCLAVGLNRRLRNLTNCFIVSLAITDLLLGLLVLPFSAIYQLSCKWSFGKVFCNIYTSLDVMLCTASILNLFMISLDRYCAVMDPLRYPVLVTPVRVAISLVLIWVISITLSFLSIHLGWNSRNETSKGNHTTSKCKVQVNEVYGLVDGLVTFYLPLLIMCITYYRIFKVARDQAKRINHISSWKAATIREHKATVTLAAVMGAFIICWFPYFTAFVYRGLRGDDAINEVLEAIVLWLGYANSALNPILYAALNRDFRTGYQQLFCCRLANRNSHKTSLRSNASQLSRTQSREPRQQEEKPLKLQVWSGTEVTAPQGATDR
# Sequence of UniProt Q13547 (whole entry, looked up): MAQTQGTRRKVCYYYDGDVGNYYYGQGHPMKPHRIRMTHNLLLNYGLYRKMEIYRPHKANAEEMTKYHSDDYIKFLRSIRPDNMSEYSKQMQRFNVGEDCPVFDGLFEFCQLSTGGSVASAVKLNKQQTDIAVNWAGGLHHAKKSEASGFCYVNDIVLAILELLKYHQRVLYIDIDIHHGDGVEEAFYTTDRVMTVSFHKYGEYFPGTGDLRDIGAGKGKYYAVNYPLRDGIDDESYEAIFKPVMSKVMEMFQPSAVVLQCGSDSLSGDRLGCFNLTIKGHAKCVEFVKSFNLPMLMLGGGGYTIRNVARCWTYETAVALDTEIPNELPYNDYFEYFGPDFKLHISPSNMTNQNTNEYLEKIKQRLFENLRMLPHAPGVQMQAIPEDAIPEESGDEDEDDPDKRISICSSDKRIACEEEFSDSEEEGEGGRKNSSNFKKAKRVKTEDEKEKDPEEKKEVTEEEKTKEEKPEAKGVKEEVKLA
# Sequence of UniProt Q13233 (whole entry, looked up): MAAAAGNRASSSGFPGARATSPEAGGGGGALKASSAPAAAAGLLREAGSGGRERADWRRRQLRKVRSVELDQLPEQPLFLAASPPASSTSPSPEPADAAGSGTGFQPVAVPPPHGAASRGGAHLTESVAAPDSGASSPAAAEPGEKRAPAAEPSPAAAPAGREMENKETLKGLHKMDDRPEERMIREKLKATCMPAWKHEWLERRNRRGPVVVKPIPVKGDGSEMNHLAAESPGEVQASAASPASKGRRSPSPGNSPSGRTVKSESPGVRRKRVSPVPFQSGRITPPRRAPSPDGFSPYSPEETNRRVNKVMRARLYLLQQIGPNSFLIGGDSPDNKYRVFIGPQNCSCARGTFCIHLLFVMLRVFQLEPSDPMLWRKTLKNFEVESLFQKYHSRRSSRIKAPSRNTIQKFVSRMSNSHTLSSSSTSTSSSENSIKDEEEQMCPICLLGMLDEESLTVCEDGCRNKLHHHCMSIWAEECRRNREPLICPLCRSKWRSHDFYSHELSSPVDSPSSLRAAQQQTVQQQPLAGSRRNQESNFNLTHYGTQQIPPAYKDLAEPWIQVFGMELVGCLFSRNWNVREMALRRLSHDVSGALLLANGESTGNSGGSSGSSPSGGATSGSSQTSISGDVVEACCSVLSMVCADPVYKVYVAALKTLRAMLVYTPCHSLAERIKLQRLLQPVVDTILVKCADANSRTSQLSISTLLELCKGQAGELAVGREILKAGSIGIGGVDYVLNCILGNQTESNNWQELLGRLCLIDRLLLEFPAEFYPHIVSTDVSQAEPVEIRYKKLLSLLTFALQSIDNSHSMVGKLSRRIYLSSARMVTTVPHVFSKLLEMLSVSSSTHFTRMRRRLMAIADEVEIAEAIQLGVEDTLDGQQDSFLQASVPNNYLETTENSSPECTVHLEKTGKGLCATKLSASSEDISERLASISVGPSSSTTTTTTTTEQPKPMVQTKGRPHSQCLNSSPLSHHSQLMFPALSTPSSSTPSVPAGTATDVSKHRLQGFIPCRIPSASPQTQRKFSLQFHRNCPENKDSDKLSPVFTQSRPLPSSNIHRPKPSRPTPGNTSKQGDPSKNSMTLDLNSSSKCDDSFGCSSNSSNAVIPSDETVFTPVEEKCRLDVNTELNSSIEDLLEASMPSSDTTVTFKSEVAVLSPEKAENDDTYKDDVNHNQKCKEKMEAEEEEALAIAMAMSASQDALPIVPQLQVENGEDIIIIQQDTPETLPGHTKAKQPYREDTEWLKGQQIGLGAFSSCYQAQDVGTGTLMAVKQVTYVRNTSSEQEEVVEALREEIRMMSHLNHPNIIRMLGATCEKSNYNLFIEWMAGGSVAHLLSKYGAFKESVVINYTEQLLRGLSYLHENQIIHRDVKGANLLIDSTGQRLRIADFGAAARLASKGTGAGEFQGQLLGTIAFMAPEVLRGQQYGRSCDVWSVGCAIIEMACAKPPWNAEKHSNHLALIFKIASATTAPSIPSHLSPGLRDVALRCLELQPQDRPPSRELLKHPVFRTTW
# Sequence of UniProt Q9Y5N1 (whole entry, looked up): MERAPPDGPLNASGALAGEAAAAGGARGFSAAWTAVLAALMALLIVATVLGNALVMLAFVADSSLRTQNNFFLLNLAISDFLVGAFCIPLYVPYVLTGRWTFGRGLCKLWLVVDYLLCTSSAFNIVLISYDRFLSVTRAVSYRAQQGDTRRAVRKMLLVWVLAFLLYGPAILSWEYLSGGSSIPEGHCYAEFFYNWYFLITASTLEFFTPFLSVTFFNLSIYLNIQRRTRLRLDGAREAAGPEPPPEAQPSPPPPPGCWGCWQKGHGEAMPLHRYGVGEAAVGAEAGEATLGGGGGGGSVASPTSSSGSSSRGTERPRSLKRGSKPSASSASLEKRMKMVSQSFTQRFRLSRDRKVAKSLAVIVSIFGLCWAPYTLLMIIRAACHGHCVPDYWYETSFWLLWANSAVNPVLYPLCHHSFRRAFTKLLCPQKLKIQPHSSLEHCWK
# Sequence of UniProt P18089 (whole entry, looked up): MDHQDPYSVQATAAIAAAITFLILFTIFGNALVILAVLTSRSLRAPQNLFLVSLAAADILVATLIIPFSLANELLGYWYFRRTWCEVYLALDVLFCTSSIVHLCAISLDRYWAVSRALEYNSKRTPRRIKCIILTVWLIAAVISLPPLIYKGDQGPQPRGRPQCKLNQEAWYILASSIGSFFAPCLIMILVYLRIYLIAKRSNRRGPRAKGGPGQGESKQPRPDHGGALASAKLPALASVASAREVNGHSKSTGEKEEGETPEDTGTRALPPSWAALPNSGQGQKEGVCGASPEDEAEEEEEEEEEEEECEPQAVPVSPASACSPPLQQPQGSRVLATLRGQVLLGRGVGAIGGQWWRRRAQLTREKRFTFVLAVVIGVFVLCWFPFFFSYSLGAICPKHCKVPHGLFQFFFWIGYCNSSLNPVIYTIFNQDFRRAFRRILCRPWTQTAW
# Sequence of UniProt Q9NR20 (whole entry, looked up): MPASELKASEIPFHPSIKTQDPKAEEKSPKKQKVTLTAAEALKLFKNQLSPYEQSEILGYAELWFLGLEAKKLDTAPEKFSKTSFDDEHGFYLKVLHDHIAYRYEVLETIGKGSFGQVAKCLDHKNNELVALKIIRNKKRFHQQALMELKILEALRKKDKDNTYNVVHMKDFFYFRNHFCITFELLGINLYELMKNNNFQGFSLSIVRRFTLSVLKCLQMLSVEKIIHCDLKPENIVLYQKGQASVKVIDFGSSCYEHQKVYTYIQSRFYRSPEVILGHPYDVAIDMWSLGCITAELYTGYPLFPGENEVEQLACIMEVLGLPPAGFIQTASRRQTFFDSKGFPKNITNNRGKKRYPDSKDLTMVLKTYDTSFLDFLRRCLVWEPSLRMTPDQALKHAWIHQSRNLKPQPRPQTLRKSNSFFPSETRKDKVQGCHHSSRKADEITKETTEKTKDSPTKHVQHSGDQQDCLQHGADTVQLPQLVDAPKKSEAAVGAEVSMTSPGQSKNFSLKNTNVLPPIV
# Sequence of UniProt Q9Y6M4 (whole entry, looked up): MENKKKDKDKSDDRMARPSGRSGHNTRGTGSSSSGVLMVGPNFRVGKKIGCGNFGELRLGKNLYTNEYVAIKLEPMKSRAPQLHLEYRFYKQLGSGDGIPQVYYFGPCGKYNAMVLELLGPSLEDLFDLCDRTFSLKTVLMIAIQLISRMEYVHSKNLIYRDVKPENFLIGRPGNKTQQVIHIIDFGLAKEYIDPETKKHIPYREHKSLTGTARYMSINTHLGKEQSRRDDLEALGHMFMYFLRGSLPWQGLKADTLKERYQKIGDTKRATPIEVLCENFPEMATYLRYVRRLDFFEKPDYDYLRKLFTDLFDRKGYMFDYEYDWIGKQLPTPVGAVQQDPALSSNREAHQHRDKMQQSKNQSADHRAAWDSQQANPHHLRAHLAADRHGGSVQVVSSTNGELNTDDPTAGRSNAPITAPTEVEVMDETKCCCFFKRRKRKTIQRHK
Structure (SMILES),target or system,assay,system,conditions,how to read,quantity,result
CCOC(=O)[C@](CC)(CCCSCCOCCOCCNC(=O)c1ccc(-c2c3ccc(=N)c(S(=O)(=O)O)c-3oc3c(S(=O)(=O)O)c(N)ccc23)c(C(=O)O)c1)NC(=O)c1ccc(C2CC2)c(Cc2ccc(F)cc2)n1,"Histamine H3 receptor (HRH3, Homo sapiens, UniProt Q9Y5N1)","ligand displacement, radioligand",,10 µM,,inhibition,-1%
COc1ccc(F)cc1S(=O)(=O)Nc1cnc2c(c1)C(=O)NCCO2,"Metabotropic glutamate receptor 5 (GRM5, Homo sapiens, UniProt P41594)","ligand displacement, radioligand",,10 µM,,inhibition,0%
COc1ccccc1N1CCN(CCCCN2CCCc3ccccc3C2=O)CC1,"D(4) dopamine receptor (DRD4, Homo sapiens, UniProt P21917)",radioligand binding,,"concentration not given, with: [3H]N-methylspiperone",,inhibition,100%
CN[C@@H]1[C@H](O)[C@H](NC)[C@H]2O[C@]3(O)[C@H](O[C@@H]2[C@H]1O)O[C@H](C)C[C@H]3NC(=O)Cc1ccc(Cl)cn1,"Histamine H2 receptor (HRH2, Homo sapiens, UniProt P25021)","ligand displacement, radioligand",,10 µM,,inhibition,20%
O=C(CN1CN(c2ccccc2)C2(CCN(C(=O)c3cnc4[nH]ncc4c3)CC2)C1=O)NCC(F)(F)F,"Hepatocyte growth factor receptor (MET, Homo sapiens, UniProt P08581, Y1235D)",inhibitor,,concentration not given,,inhibition,< 50%
O=S(=O)(F)CCc1cn(Cc2ccccc2F)nn1,BCHE,"enzyme activity, inhibitor, Ellman's method",horse serum BuChE,20 µM,,inhibition,29.4 ± 3.3%
O=C(CCCCCCC(=O)Nc1ccccc1)NO,"Histone deacetylase 1 (HDAC1, Homo sapiens, UniProt Q13547)","enzyme activity, inhibitor",,1 µM,,inhibition,92.1%
c1ccc2[nH]ccc2c1,BCHE,"enzyme activity, inhibitor, Ellman",,20 µM,,inhibition,44.7%
CC(C)[C@H]1NC(=O)C[C@H]2/C=C/CCSSC[C@@H](NC1=O)C(=O)N[C@H](Cc1cccc3ccccc13)C(=O)NCC(=O)O2,"Casein kinase I isoform gamma-3 (CSNK1G3, Homo sapiens, UniProt Q9Y6M4)","enzyme activity, inhibitor",,10 µM,,inhibition,1.3%
C[C@H](NCc1ccc(-c2ccc(C(F)(F)F)cc2)cc1)C(N)=O,"Alpha-2B adrenergic receptor (ADRA2B, Homo sapiens, UniProt P18089)","radioligand binding, SafetyScreen panel",,"1 µM, species human, with: 2.50 nM [3H]Rauwolscine",,inhibition,-3%
CCC1CC(c2ccc(C(=O)O)cc2C)=NN1c1ccc(C#N)c(Cl)c1 (centres unmarked),"DNA (cytosine-5)-methyltransferase 1 (DNMT1, Homo sapiens, UniProt P26358)","enzyme activity, inhibitor",,10 µM,,inhibition,17%
N[C@H](C(=O)N1CCCC1)C1CCN(c2nccc3c(-c4ncc(Cl)cc4Cl)cccc23)CC1,"Tyrosine-protein kinase ABL1 (ABL1, Homo sapiens, UniProt P00519)","kinase activity, inhibitor",,"10 µM, with: ATP 1 mM",,inhibition,-3.2%
CN(/N=C/c1ccccc1C(=O)O)c1nc(-c2ccccc2Cl)cs1,"Casein kinase II subunit alpha' (CSNK2A2, Homo sapiens, UniProt P19784)","enzyme activity, inhibitor",,1 µM,,inhibition,-12.5%
CS(C)(=O)=Nc1ccc(-c2ccc(-c3nc4cc(O[C@@H]5CO[C@H]6[C@@H]5OC[C@H]6O)[nH]c4cc3F)cc2)cc1,"Tyrosine-protein kinase ABL1 (ABL1, Homo sapiens, UniProt P00519, T315I)","enzyme activity, inhibitor",,10 µM,,inhibition,1%
CC(=O)NC[C@@H]1[C@@H](O)C[C@H]2[C@H](O)C[C@@H](CO)N12,Spodoptera litura β-N-acetylglucosaminidase,,crude enzyme,"3.42 µM, run 1, with: p-nitrophenyl GlcNAc",,inhibition,86.8%
O=C1NC2(CC2)COc2ncc(F)cc2[C@H]2COCCN2c2ccn3ncc1c3n2,,,"Sprague-Dawley rat, female, kidneys","oral, 20 mg/kg/day, 4 weeks, end of treatment",,organ-to-body weight ratio,0.678 ± 0.051%
CN(C)[C@H]1C[C@@]23CC[C@@]4(O2)C(=CC[C@]2(C)[C@@H](c5ccc6ccncc6c5)CC[C@H]24)C=C3[C@@H](O)[C@@H]1O,"Mitogen-activated protein kinase kinase kinase 1 (MAP3K1, Homo sapiens, UniProt Q13233)","ATP probe labelling, inhibitor, KiNativ profiling",,0.1 µM,,inhibition,14.7%
CCc1cccc(CC)c1-n1cc(CCS(=O)(=O)F)nn1,BCHE,Ellman,horse,20 µM,,inhibition,83 ± 1.1%
O=C(O)c1ccccc1/C=N/Nc1nc(-c2ccccc2Cl)cs1,"Dual specificity tyrosine-phosphorylation-regulated kinase 4 (DYRK4, Homo sapiens, UniProt Q9NR20)","enzyme activity, inhibitor",,1 µM,,inhibition,-5.23%
COc1ccccc1-c1n[nH]c2nc(NC3CCN(C(=O)Cc4ccc(F)cc4F)CC3)ncc12,,"bead binding, competition bead pull-down, item: LINJ.35.3280",Leishmania donovani axenic amastigote extract,10 µM,reference: vehicle,relative abundance,0.99
